Published values gathered from unrelated publications.
Every numbered part comes from another study and shows a few of its results, in no order. Substitutions count along the parent as printed.

Sample 1 — method: universal PBM; molecule type: double-stranded DNA, one strand shown; medium: in vitro; tested at: 600 nM; direction: higher = stronger binding
Target: Sal-like protein 4, full length isoform A (SALL4, Homo sapiens, UniProt Q9UJQ4, residues 1-1053)
UniProt Q9UJQ4, sequence (whole entry, looked up): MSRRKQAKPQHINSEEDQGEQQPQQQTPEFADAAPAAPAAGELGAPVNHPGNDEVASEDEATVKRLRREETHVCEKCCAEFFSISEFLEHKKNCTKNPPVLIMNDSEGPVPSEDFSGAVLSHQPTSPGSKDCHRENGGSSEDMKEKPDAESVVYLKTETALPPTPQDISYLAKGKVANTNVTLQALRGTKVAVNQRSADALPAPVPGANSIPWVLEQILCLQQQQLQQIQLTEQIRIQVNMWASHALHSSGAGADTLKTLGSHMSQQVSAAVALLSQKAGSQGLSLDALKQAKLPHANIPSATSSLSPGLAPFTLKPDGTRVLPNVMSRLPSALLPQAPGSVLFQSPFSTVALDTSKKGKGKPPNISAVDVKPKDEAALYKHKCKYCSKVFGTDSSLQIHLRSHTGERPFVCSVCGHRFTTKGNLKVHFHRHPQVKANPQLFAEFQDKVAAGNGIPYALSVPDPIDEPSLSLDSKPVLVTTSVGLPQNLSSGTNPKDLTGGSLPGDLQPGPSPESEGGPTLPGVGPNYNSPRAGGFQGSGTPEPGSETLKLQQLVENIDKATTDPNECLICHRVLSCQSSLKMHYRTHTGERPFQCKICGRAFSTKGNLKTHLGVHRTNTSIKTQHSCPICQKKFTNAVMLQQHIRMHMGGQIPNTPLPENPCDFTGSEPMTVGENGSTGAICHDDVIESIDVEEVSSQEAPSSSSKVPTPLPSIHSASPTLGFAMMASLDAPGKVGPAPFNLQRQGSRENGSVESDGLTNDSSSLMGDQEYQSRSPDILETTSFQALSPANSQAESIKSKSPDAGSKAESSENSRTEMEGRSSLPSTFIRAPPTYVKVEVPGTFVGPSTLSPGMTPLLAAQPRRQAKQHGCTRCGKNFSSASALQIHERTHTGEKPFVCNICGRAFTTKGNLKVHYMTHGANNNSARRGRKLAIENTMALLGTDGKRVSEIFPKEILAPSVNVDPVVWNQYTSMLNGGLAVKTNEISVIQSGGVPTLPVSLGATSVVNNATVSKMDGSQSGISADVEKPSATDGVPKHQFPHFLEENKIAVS
Notes: 8-mer, flanks averaged, mean of replicates
| Sequence | E-score |
| --- | --- |
| ATAACTGC | 0.296 |
| TGTGTGAA | 0.17 |
| GCCGCCCC | -0.418 |
| GTTGGGAA | -0.135 |
| GAAAACTA | 0.085 |
| ATCGCCAG | -0.113 |
| GGCGGTTA | -0.178 |
| GGATCAAC | 0.0668 |
| ACAACACA | 0.0819 |
| AGATAAGA | 0.275 |
| AGGAGCGG | -0.371 |
| CTGCGCGC | -0.133 |
| CATTTTCA | 0.263 |
| CGTTCCGC | -0.156 |
| GTTCGAGA | 0.0312 |
| CAAAGTAC | 0.021 |
| CAGTACTG | -0.242 |
| CATGCTGG | -0.204 |
| ATAAACAG | 0.311 |
| CGTATGAA | 0.253 |
| AACTCACC | -0.0891 |
| GCGTAATA | 0.293 |
| ACAAGTAT | 0.286 |

Sample 2 — target: CREBZF, bZIP domain (human); method: DHFR protein complementation; medium: yeast; baseline: wild-type JUN-FOS pair; direction: higher = stronger binding
Notes: single substitutions, most at no-binding floor
Starting sequence: JUN, bZIP domain (human); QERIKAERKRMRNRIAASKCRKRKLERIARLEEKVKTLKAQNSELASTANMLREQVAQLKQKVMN; partner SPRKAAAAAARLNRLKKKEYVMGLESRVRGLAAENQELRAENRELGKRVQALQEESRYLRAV
| Change | binding fitness [natural log] |
| --- | --- |
| T37P | -1.49 |
| E54I | -1.43 |
| S43H | -1.52 |
| E54K | -1.52 |
| L52K | -1.56 |
| L38T | -1.45 |
| I28H | -1.64 |
| R53D | -1.58 |
| S43P | -1.43 |
| T48G | -1.51 |
| L45E | -1.53 |
| E33P | -1.51 |
| N42S | -1.44 |
| R30M | -1.43 |
| A49R | -1.36 |
| T37E | -1.49 |
| V56Q | -1.55 |
| E32K | -1.53 |
| R30F | -1.34 |
| A49H | -1.54 |
| T48V | -1.31 |
| K39M | -1.42 |
| A46D | -1.4 |
| S47M | -1.5 |

Sample 3 — method: RNA Bind-n-Seq; molecule type: RNA; medium: in vitro; tested at: 200 nM; notes: whole 134-nt RNA, ends assumed; together with: 150 mM KCl; baseline: input library; direction: higher = stronger binding
Target: Ras GTPase-activating protein-binding protein 1, full length (G3BP1, Homo sapiens, UniProt Q13283)
UniProt Q13283, sequence (whole entry, looked up): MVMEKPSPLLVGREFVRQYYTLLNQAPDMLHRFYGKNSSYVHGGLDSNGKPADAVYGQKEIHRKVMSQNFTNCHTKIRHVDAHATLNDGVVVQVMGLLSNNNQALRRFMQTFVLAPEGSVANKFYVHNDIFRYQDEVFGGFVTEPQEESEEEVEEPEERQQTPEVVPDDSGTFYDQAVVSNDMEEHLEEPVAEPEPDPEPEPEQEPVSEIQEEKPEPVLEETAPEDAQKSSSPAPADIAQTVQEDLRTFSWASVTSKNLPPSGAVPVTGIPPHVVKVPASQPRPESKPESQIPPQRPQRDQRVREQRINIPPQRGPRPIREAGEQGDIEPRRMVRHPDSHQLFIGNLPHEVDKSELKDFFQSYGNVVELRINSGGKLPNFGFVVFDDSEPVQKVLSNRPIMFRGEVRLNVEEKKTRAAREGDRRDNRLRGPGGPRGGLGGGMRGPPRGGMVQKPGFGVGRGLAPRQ
All sequences stand within: GGGAGUUCUACAGUCCGACGAUC … UGGAAUUCUCGGGUGUCAAGG
| Sequence | log2 enrichment |
| --- | --- |
| UUCAGUAAAAUGGCAGAAGAGAAACUGACCCACAAAAUGGAAGCUAAUAAAGAGAACCGAGAGGCACAAAUGGCUGCCAAACUGGAACGU | -1.02 |
| UCCUCAAGUCCUGUGCUACACAUCGUAUGUACCGAAUCGGGGUGGUGGUGGGAAAGUAUUAUGUUACGCCGUUCGGAUCUGCACUUCCAG | 0.545 |
| GUCCUGUGCUACACAUCGUAUGUACCGAAUCAAAUUUUUUUAAAUUUUUAAACCCAAAAAAGUAUUAUGUUACGCCGUUCGGAUCUGCAC | -0.271 |
| GUCCUGUGCUACACAUCGUAUGUACCGAAUCGGAAAAAAAGGUUUUUGGUUUUUUUGGAAAGUAUUAUGUUACGCCGUUCGGAUCUGCAC | -1.73 |
| GGAGGAAGUAAAAACAAAUGGAAAUGCUUCGGAUAGUGGCAGGGGUGGGGGUUGCUAAGGAAAGGGUGGGAUGGGAGUGGGUAAAGAGUU | 0.866 |
| GCAGGAAGUAAAAACAAAUGGAAAUGCUUGGGAUAGUGGCAGGGGUGGGGGUUGCUAAGGAAAGGGUGGGAUGGGAGUGGGUAAAGAGUU | 0.777 |
| ACCAUGCAGGUGGGCAUCUUUGGGAAGUGGGGCAAGGGGGGGAUAGGGAGGGGGGUAACACUUUGGGAACAGGUGGUCUCAGGUCGUUUC | 1.4 |
| UGGCCCUGGUGGCAUGCGGCGAGGAAGAGGUGGCCUCAUGGAUCGUGGUGGUCCCGGUGGAAUGUUCAGAGGUGGCCGUGGUGGAGACAG | 0.352 |
| UCAAGUCCUGUGCUACACAUCGUAUGUACCGAAUCGGAGGUUUUUUUGGUUUGGAAAGUAUUAUGUUACGCCGUUCGGAUCUGCACUUCC | -1.12 |
| UGGCCCUGGUGGCAUGCGGGGAGGAAGAGGUGGCCUCAUGGAUCAUGGUGGUCCCGGUGGAAUGUUCAGAGGUGGCCGUGGUGGAGACAG | 0.158 |
| CACAGACAAGACGCACCCACACAGACACAGAGGGAAGGGGUUGGGAUGGGGACAGGGUGCACAGCAGGGCGGGGUAGGACCCCAGCCCCU | 1.84 |
| UCAAGUCCUGUGCUACACAUCGUAUGUACCGAAUCGGAAAAAGGAAAGGUUUGGAAAGUAUUAUGUUACGCCGUUCGGAUCUGCACUUCC | -1.36 |
| UCCUGUGCUACACAUCGUAUGUACCGAAUCGGGGCCCCCGGCCCCCGGGGCCCCCGGGGAAAGUAUUAUGUUACGCCGUUCGGAUCUGCA | -0.889 |
| AGUCCUGUGCUACACAUCGUAUGUACCGAAUCGGGGUUUUUGGGGAGGGGUUUGGGGAAAGUAUUAUGUUACGCCGUUCGGAUCUGCACU | 0.328 |

Sample 4 — method: protein-binding microarray; molecule type: double-stranded DNA, one strand shown; medium: in vitro; tested at: 250 nM; notes: 60-bp whole probe; together with: salmon DNA 0.4 mg/ml; baseline: random background probes; direction: higher = stronger binding; all sequences stand within: GCCTAGCAC … GTCTTGATTCGCTTGACGCTGCTG
Target: Interferon regulatory factor 5, full length, phosphomimetic (IRF5, Homo sapiens, UniProt Q13568-2, residues 1-514, K96S/S451D/S453D/S456D/S462D)
| Sequence | log fluorescence [z-score] |
| --- | --- |
| TCAAGAATGGGGTTTGCAACTGTGCTA | 0.0297 |
| CCGGGTTTCACCATGTTGGCGTGCTAG | 1.75 |
| TCATCTCCAGGGTTTCTCACTGTGCTA | -0.00967 |
| TTAGATTTAAGTTCCGATTAGTGCTAG | 1.03 |
| TACAAATCCAGCCCTACAGAGTGCTAG | -0.097 |
| TTACAACTGAGACTGGATTAGTGCTAG | 0.347 |
| TTAGGTATCGGATTTCGGTTAGTGCTA | 6.13 |
| CAGGCAGGAGAAGTGAATGAGTGCTAG | -0.412 |
| GACGGTTTCGGCCTGGGGACGTGCTAG | 6.49 |
| GACGGACTGGGGTTTCGGGTCGTGCTA | 2.25 |
| GACGGTGTCGGTCTCGGGACGTGCTAG | -0.161 |
| AACTTTGGTATCTGGCATCTGTGCTAG | 0.623 |
| GACGATCTCAGACCGGAGACGTGCTAG | -0.282 |
| GACGGTTTCGGGTCTGGGGACGTGCTA | 6.94 |
| GACGCTTTCGGTATCGGGACGTGCTAG | 10.3 |
| TTAGGTCTCCTTCTCCTTCAGTGCTAG | -0.14 |
| GACGGTCTCGGGACTGGGGACGTGCTA | -0.468 |
| TTAGATATCGAGTATCGATTAGTGCTA | 6.83 |
| GACGGACTGCTACTACTGACGTGCTAG | -0.415 |
| GACGGTTTCCTACTGTTGACGTGCTAG | 0.429 |
| GGCGATTTCAGTATCGAGACGTGCTAG | 3.94 |
| TTAGGACTGAGTATCGATTAGTGCTAG | 6.33 |
| GACGAACTGAGTCTTGAGACGTGCTAG | -0.343 |
| GACGGATTGGACTTTCGGGACGTGCTA | 3.98 |
| AGGAAGATCATTCTCACTGCGTGCTAG | -0.0171 |

Sample 5 — method: protein-binding microarray; molecule type: double-stranded DNA, one strand shown; medium: in vitro; tested at: not given; direction: higher = stronger binding
Target: Protein C-ets-1 (ETS1, Homo sapiens, UniProt P14921, residues 1-441, full length assumed)
Notes: k-mer, scored over probes, only values ≥0.25
Construct (chain): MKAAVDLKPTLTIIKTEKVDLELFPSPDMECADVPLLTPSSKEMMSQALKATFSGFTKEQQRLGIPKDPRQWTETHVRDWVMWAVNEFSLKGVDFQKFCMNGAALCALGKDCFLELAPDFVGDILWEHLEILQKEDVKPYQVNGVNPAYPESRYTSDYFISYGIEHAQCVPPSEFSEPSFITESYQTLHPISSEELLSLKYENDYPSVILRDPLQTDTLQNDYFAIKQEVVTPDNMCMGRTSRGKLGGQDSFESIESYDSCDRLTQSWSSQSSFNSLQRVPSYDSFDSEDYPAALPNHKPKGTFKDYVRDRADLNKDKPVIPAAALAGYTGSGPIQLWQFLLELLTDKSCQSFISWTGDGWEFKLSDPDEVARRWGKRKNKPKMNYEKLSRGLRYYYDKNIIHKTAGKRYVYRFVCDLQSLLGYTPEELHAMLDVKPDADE
| Sequence | E-score |
| --- | --- |
| ATATCCCG | 0.302 |
| CGGAAGAA | 0.449 |
| ATCCGTAG | 0.277 |
| CCGGGGAA | 0.352 |
| GGGCGGAA | 0.462 |
| CCGGGACA | 0.304 |
| CGGAAATA | 0.475 |
| CTTCCGGC | 0.495 |
| GGGGGGAA | 0.282 |
| CAGCTTCC | 0.405 |
| CTTCCGCC | 0.482 |
| CGGATCCC | 0.322 |
| AGGATGTC | 0.426 |
| CGAATCCG | 0.323 |
| AGGAAGGC | 0.342 |
| TAACAGGA | 0.325 |
| AGGAAGAA | 0.341 |
| TATCCTGA | 0.253 |
| CCCCGCCC | 0.352 |
| ATACCGGA | 0.443 |
| AATATCCC | 0.251 |
| AACTTCCC | 0.422 |
| TAACGGAA | 0.395 |
| CGGCCGGA | 0.418 |
| CGAGGAAG | 0.388 |

Sample 6 — target: CCND2, cyclin fold, Cln2 fusion (human); method: yeast growth competition, sequencing; medium: yeast; notes: weak parent motif; baseline: not given; direction: higher = stronger binding
Starting sequence: REPIN1 docking peptide (human); QSFRGWVALVLHL; partner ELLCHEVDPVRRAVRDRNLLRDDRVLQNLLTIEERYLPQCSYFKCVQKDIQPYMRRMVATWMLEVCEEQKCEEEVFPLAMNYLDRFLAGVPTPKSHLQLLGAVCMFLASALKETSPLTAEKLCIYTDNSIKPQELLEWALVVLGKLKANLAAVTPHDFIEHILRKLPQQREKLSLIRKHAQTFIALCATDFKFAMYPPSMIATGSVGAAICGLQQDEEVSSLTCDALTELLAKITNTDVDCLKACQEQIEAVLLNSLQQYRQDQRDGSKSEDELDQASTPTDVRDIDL
| Change | normalised enrichment score |
| --- | --- |
| QSFRGWVAAVLHL [L9A] | -0.901 |
| QSFRAWVALVLHL [G5A] | -0.0825 |
| QSFRGWVALVLHA [L13A] | -0.304 |
| QSFRGWVALVLAL [H12A] | -0.334 |
| QAFRGWVALVLHL [S2A] | -0.109 |
| QSFAGWVALVLHL [R4A] | -0.734 |

Sample 7 — method: DHFR PCA, deep sequencing; medium: yeast; together with: (+)-ABA 4.8 µM; baseline: wild-type fitted maximum; direction: higher = stronger binding
Target: ABI1, truncated, D143A, DHFR fusion (Arabidopsis thaliana)
Notes: methotrexate growth selection, single substitutions
Starting sequence: PYL1, truncated, DHFR fusion (Arabidopsis thaliana); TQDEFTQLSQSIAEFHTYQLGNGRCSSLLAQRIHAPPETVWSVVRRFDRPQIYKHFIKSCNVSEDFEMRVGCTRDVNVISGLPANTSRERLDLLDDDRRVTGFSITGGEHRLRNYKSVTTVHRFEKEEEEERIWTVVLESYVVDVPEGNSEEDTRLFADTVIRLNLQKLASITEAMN
| Change | relative binding score |
| --- | --- |
| S26R | 25.6% |
| E109W | -7.22% |
| S87I | 30.2% |
| E14A | 40% |
| Y53P | -6.19% |
| H122Q | 10.2% |
| S59N | 59.6% |
| K168L | 0.808% |
| F103R | -8.64% |
| E130G | 74.6% |
| E38D | 70.9% |
| G21E | 79% |

Mixed results
| Molecule | target | test | system | conditions | scale | measurement | value |
| --- | --- | --- | --- | --- | --- | --- | --- |
| PhoQ, residues 284 288 289 292 302 303 SSTMSV | PhoP, residues 12 14 15 18 19 GQALL (Escherichia coli, UniProt P23836) | Sort-seq, measured: YFP reporter | E. coli | PhoQ-PhoP variant library, together with: 10 µM Mg2+ | baseline: high Mg2+ state, higher = stronger signaling | fold induction | 1.03 |

Repeated from above (sample 7):
| Change | relative binding score |
| --- | --- |
| E109W | -7.22% |
| S87I | 30.2% |
| E14A | 40% |
| Y53P | -6.19% |
| H122Q | 10.2% |
| S59N | 59.6% |
| K168L | 0.808% |
| F103R | -8.64% |
